Results from different studies.
Numbers after ± are the reported error.

SMILES | assay | test system | setting | scale | measurement | value
CCN(CCCCOc1ccc(CCC(=O)N2CCC(Cc3ccccc3)CC2)cc1OC)Cc1ccccc1 |  | Sprague-Dawley rats, both sexes, faeces | oral gavage, 25 mg/kg, 0 to 6 h | relative to: dose | excretion rate | 0.0011 ± 0.0006%
O=C1NC2(CC2)COc2ncc(F)cc2[C@H]2COCCN2c2ccn3ncc1c3n2 |  | Sprague-Dawley rat, male, blood | oral, 2.5 mg/kg/day, 4 weeks, end of recovery, subacute toxicity |  | mean corpuscular haemoglobin concentration | 320 ± 6 g/L
N=C(N)NCCC[C@@H](NC(=O)[C@H](N)Cc1c[nH]c2ccccc12)C(=O)N[C@H](CCCCN)C(=O)N[C@H](Cc1c[nH]c2ccccc12)C(=O)N[C@H](CCCNC(=N)N)C(=O)N[C@H](CCCCN)C(=O)N[C@H](Cc1c[nH]c2ccccc12)C(=O)N[C@H](CCCNC(=N)N)C(=O)N[C@H](CCCCN)C(=O)N[C@H](Cc1c[nH]c2ccccc12)C(=O)N[C@H](CCCNC(=N)N)C(=O)N[C@H](CCCCN)C(N)=O |  | mouse | intraperitoneal, 20 mg/kg single dose, day 4 |  | survival | 100%
COc1ccc(CNc2ccc3c(c2)S(=O)(=O)C=C3)cc1 |  | male C57BL/6 mice, blood | intraperitoneal, 20 mg/kg, day 8, group average |  | haemoglobin | 119 g/L
CCC1CC(c2ccc(C(=O)O)cc2C)=NN1c1ccc(C#N)c(Cl)c1 (stereo not drawn) |  | human, liver microsomes | 1 µM |  | intrinsic clearance | < 5 µL/min/mg
N#[11C]c1ccc(-c2csc(NN=C3CCCC3)n2)cc1 |  | C57BL/6 mice, male, spleen | intravenous, 3 MBq, 5 min |  | radioactivity uptake | 3.1 ± 0.37 %ID/g
CCCCCCCCCCCCCCCC(=O)NCCCCCCNC(=O)C(CCCCNC(=O)CCN1C(=O)CC(SC[C@H](NC(=O)[C@H](CCCNC(=N)N)NC(=O)CNC(=O)[C@H](CCCCN)NC(=O)[C@@H](NC(=O)[C@H](CC(C)C)NC(=O)[C@H](Cc2c[nH]c3ccccc23)NC(=O)[C@H](C)NC(=O)[C@@H](NC(=O)[C@H](Cc2ccccc2)NC(=O)[C@H](CCC(=O)O)NC(=O)[C@H](CCCCN)NC(=O)[C@H](C)NC(=O)[C@H](C)NC(=O)[C@H](CCC(N)=O)NC(=O)CNC(=O)[C@H](CCC(=O)O)NC(=O)[C@H](CC(C)C)NC(=O)[C@H](Cc2ccc(O)cc2)NC(=O)[C@H](CO)NC(=O)[C@H](CO)NC(=O)[C@@H](NC(=O)[C@H](CC(=O)O)NC(=O)[C@H](CO)NC(=O)[C@@H](NC(=O)[C@H](Cc2ccccc2)NC(=O)[C@@H](NC(=O)CNC(=O)[C@H](CCC(=O)O)NC(=O)CNC(=O)[C@@H](N)Cc2c[nH]cn2)[C@@H](C)O)[C@@H](C)O)C(C)C)[C@@H](C)CC)C(C)C)C(N)=O)C1=O)NC(=O)CCN1C(=O)CC(SC[C@H](NC(=O)[C@H](CCCNC(=N)N)NC(=O)CNC(=O)[C@H](CCCCN)NC(=O)[C@@H](NC(=O)[C@H](CC(C)C)NC(=O)[C@H](Cc2c[nH]c3ccccc23)NC(=O)[C@H](C)NC(=O)[C@@H](NC(=O)[C@H](Cc2ccccc2)NC(=O)[C@H](CCC(=O)O)NC(=O)[C@H](CCCCN)NC(=O)[C@H](C)NC(=O)[C@H](C)NC(=O)[C@H](CCC(N)=O)NC(=O)CNC(=O)[C@H](CCC(=O)O)NC(=O)[C@H](CC(C)C)NC(=O)[C@H](Cc2ccc(O)cc2)NC(=O)[C@H](CO)NC(=O)[C@H](CO)NC(=O)[C@@H](NC(=O)[C@H](CC(=O)O)NC(=O)[C@H](CO)NC(=O)[C@@H](NC(=O)[C@H](Cc2ccccc2)NC(=O)[C@@H](NC(=O)CNC(=O)[C@H](CCC(=O)O)NC(=O)CNC(=O)[C@@H](N)Cc2c[nH]cn2)[C@@H](C)O)[C@@H](C)O)C(C)C)[C@@H](C)CC)C(C)C)C(N)=O)C1=O (stereo partly drawn) |  | Kunming mouse, plasma | subcutaneous, 50 nmol/kg |  | MRT | 11.3 ± 0.5 h
CC(C)C[C@H](NC(=O)[C@H](Cc1ccc(O)cc1)NC(=O)[C@H](Cc1c[nH]cn1)NC(=O)[C@H](CCCCN)NC(=O)[C@H](CC(C)C)NC(=O)[C@H](C)NC(=O)[C@H](CC(C)C)NC(=O)[C@H](CCCCN)NC(=O)CNC(=O)[C@@H](NC(=O)[C@@H](NC(=O)[C@H](CCCCN)NC(=O)[C@@H](NC(=O)[C@H](CCC(=O)O)NC(=O)[C@H](C)NC(=O)[C@H](CCCCN)NC(=O)[C@H](CCCCN)NC(=O)[C@H](CC(C)C)NC(=O)[C@H](CC(C)C)NC(=O)[C@@H](NC(=O)[C@H](CCCNC(=N)N)NC(=O)[C@H](Cc1c[nH]c2ccccc12)NC(=O)CN)[C@@H](C)O)C(C)C)[C@@H](C)O)C(C)C)C(N)=O |  | zebrafish embryos 28 hpf, E3 medium | 1 h |  | acute toxic concentration | 25 µM
Cc1ccc(OCC(=O)N(Cc2cccs2)c2ccn[nH]2)cc1 | micronucleus | CD-1 mouse Crl:CD-1(ICR), female, bone marrow | oral, 1500 mg/kg/day, 3 days |  | PCE to total erythrocyte ratio | 0.62 ± 0.07
O=C(O)CC[C@H](NC(=O)[C@H](CCC(=O)O)NC(=O)[C@H](CCC(=O)O)NC(=O)[C@H](CCC(=O)O)NC(=O)[C@H](CCC(=O)O)NC(=O)CNC(=O)[C@H](CCC(=O)O)NC(=O)CNC(=O)[C@H](CCC(=O)O)NC(=O)[C@@H](Cc1ccccc1)NC(=O)[C@@H](Cc1ccccc1)NC(=O)Cc1ccc2ccccc2c1)C(=O)O |  | PBS | pH 7.4 |  | critical micelle concentration | 145 µM
CC[C@H](C)[C@H](NC(=O)[C@H](CCCCN)NC(=O)CNC(=O)[C@H](CC(C)C)NC(=O)[C@H](Cc1ccccc1)NC(=O)[C@H](CCCCN)NC(=O)[C@H](CO)NC(=O)[C@H](Cc1ccccc1)NC(=O)[C@H](Cc1c[nH]c2ccccc12)NC(=O)[C@H](CCC(N)=O)NC(=O)[C@@H](NC(=O)[C@H](Cc1ccccc1)NC(=O)CCCCCNC(=O)CN1CCN(CC(=O)O)CCN(CC(=O)O)CCN(CC(=O)O)CC1)C(C)C)C(=O)N[C@@H](CCC(=O)O)C(=O)N1CCC[C@H]1C(=O)N[C@@H](CC(=O)O)C(=O)N[C@H](C(=O)N[C@@H](CO)C(=O)N[C@@H](CCC(N)=O)C(=O)N[C@H](C(=O)N[C@@H](CCC(N)=O)C(=O)N[C@@H](CC(=O)O)C(=O)N1CCC[C@H]1C(=O)N[C@@H](CC(N)=O)C(=O)N[C@@H](CC(=O)O)C(=O)N[C@@H](CCC(N)=O)C(=O)N[C@@H](Cc1ccc(O)cc1)C(=O)N[C@@H](CCC(=O)O)C(=O)N1CCC[C@H]1C(=O)N[C@@H](Cc1ccccc1)C(=O)O)C(C)C)C(C)C [copper-64 labelled] | dynamic PET | mouse, CT26 tumour, checkpoint inhibitor-treated, tumour | intravenous, 100 µCi/mouse, 1740 s |  | SUVmean | 3.69 SUV
CCCCCCCCCCCCCCCC(=O)NCCCC[C@H](NC(=O)[C@H](CCC(=O)O)NC(=O)[C@H](Cc1ccc(O)cc1)NC(=O)[C@H](CCC(=O)O)NC(=O)COCC(=O)NCCCOCCOCCOCCCNC(=O)[C@H](Cc1ccccc1)NC(=O)[C@H](CC(N)=O)NC(=O)[C@H](Cc1c[nH]cn1)NC(=O)[C@@H](NC(=O)[C@H](CC(=O)O)NC(=O)[C@H](CCC(N)=O)NC(=O)[C@H](CC(C)C)NC(=O)[C@H](CCCCN)NC(=O)[C@H](CCCCN)NC(=O)[C@H](CCCNC(=N)N)NC(=O)[C@H](CC(C)C)NC(=O)[C@H](Cc1c[nH]c2ccccc12)NC(=O)[C@H](CCC(=O)O)NC(=O)[C@@H](NC(=O)[C@H](CCCNC(=N)N)NC(=O)[C@H](CCC(=O)O)NC(=O)[C@H](CCSC)NC(=O)[C@H](CO)NC(=O)[C@H](CC(N)=O)NC(=O)[C@H](CC(C)C)NC(=O)[C@H](Cc1c[nH]cn1)NC(=O)[C@H](CCCCN)NC(=O)CNC(=O)[C@H](CC(C)C)NC(=O)[C@H](CC(N)=O)NC(=O)[C@H](Cc1c[nH]cn1)NC(=O)[C@H](CCSC)NC(=O)[C@H](CC(C)C)NC(=O)[C@H](CCC(N)=O)NC(=O)[C@@H](NC(=O)[C@H](CCC(=O)O)NC(=O)[C@H](CO)NC(=O)[C@@H](NC(=O)[C@@H](N)CO)C(C)C)[C@@H](C)CC)C(C)C)C(C)C)C(=O)N[C@@H](CCC(=O)O)C(=O)N[C@@H](Cc1ccc(O)cc1)C(=O)N[C@@H](CCC(=O)O)C(N)=O | ELISA | female CD-1 mice, blood plasma | subcutaneous, 10 nmol/kg, 4 h |  | plasma concentration | 7.7 nM
